Measured values gathered from unrelated publications.
± gives the spread as reported.
ABCB1: ATP-dependent translocase ABCB1 (ABCB1, Homo sapiens, UniProt P08183)

| Structure (SMILES) | tested on | assay | test system | setting | scale | endpoint | value |
| --- | --- | --- | --- | --- | --- | --- | --- |
| CC(C)(C)c1ccc(C(O)CCCN2CCC(C(O)(c3ccccc3)c3ccccc3)CC2)cc1 (stereo not drawn) | African green monkey cells | – | – | 5 days | – | CC50 | 5.13 µM |
| COC(=O)[C@@H]1[C@H]2CC[C@@H](C[C@@H]1O)N2C | – | – | rat whole blood | 500 nM, 4 months, -80 °C | – | stability bias | 3.8% |
| O=[N+]([O-])c1ccc(N2CCC(NCCC(O)c3ccc(F)c4ccccc34)CC2)c(C(F)(F)F)c1 (stereo not drawn) | Salmonella typhimurium | SOS/umu test | TA1535/pSK1002 | 0.008 mg/mL, 4 h, with S9, lower range | – | survival | 105% |
| CCCCCCC(C)(C)c1cc(O)c2c(c1)OC(C)(C)C1CCC(=O)CC21 (stereo not drawn) | African green monkey cells | – | – | 5 days | – | CC50 | 11.1 µM |
| CC(=O)O[C@H]1C=C[C@H]2[C@H]3Cc4ccc(O)c5c4[C@@]2(CCN3C)[C@H]1O5 | – | – | rat, whole blood | 1000 nM, 4 h, room temperature, bench-top storage | – | stability bias | 13% |
| [Cl-].[Cl-].[Pt+2].[Ru+2].c1ccc(-c2nc3cc4ccccc4cc3nc2-c2ccccn2)nc1.c1cnc2c(c1)ccc1cccnc12.c1cnc2c(c1)ccc1cccnc12 | Danio rerio | – | embryos | 75 µM, 72 h | – | hatching rate | 10 ± 5.2% |
| CO[C@H]1/C=C/O[C@@]2(C)Oc3c(C)c(O)c4c(O)c(c(/C=N/N5CCN(C6CCCC6)CC5)c(O)c4c3C2=O)NC(=O)/C(C)=C\C=C\[C@H](C)[C@H](O)[C@@H](C)[C@@H](O)[C@@H](C)[C@H](OC(C)=O)[C@@H]1C | African green monkey cells | – | – | – | – | CC50 | 142 µM |
| COC(=O)[C@H]1[C@@H](OC(=O)c2ccccc2)C[C@@H]2CC[C@H]1N2 | – | – | rat whole blood | 500 nM, 4 freeze-thaw cycles | – | stability bias | 8.23% |
| CC(C)(C)c1cc(C(C)(C)C)c(NC(=O)c2c[nH]c3ccccc3c2=O)cc1O | African green monkey cells | – | – | 5 days | – | CC50 | 4.62 µM |
| CCCc1nn(C)c2c(=O)[nH]c(-c3cc(S(=O)(=O)N4CCN(C)CC4)ccc3OCC)nc12 | ABCB1 | transport, inhibitor | – | 100 µM, 5 (unit not given), pH 7, together with: NMN | – | inhibition | 86.6% |
| CN1CC[C@]23c4c5ccc(O[C@@H]6O[C@H](C(=O)O)[C@@H](O)[C@H](O)[C@H]6O)c4O[C@H]2[C@@H](O)C=C[C@H]3[C@H]1C5 | – | – | rat, whole blood | 1000 nM, 4 months, -80 °C, long-term storage | – | stability bias | 2.88% |
| CN1CCCN(C(c2ccccc2)c2ccc(Cl)cc2)CC1 (stereo not drawn) | African green monkey cells | – | – | 5 days | – | CC50 | 21.1 µM |
| O=C(NCc1cccnc1)Nc1ccc([N+](=O)[O-])cc1 | mouse DRG neurons | neurite degeneration | – | 50 µM, 8 h | reference: vehicle | degeneration index difference | 34.2 |
| Cc1cc2nc3c(=O)[nH]c(=O)nc-3n(C[C@H](O)[C@H](O)[C@H](O)COP(=O)(O)O)c2cc1C | Iodotyrosine deiodinase (Haliscomenobacter hydrossis, UniProt F4KU78, R38Q) | bound cofactor redox, redox titration | – | pH 7.4, 25 °C, anaerobic, no substrate | – | midpoint potential | -208 ± 6 mV |
| CNCCC=C1c2ccccc2CCc2ccccc21 | African green monkey cells | – | – | 5 days | – | CC50 | 24 µM |
| CC(C)CC(=O)OC[C@H]1O[C@@](C#N)(c2ccc3c(N)ncnn23)[C@H](O)[C@@H]1O | ABCB1 | basolateral to apical transport | Caco-2 | 90 µM, 2 h, together with: zosuquidar 25 µM | – | recovery | 77.8% |
| O=c1ccc2ccccc2o1 | NHEK | – | keratinocyte growth medium | concentration not given, 1 h, ER stress panel | – | BiP induction, chance of response | 0.05% |
| OCCN1CCN(CCC=C2c3ccccc3Sc3ccc(C(F)(F)F)cc32)CC1 | African green monkey cells | – | – | 5 days | – | CC50 | 7.67 µM |
| O=C1c2c(O)c(=O)ccn2N([C@@H]2c3ccccc3SCc3c2ccc(F)c3F)[C@@H]2COCCN12 | – | – | BALB/c mice, plasma | oral, 50 mg/kg baloxavir marboxil, 8 h | – | plasma concentration | 54.7 ng/mL |
| COc1cccc(-c2n[nH]c(SCc3ccccn3)n2)c1OC | Escherichia coli | Ames test, plate incorporation | WP2 uvrA | 2.0 mg/plate, without S9 | – | revertant colonies per plate | 30 |
| CCCOc1ccc(C(=O)CCN2CCCCC2)cc1 | African green monkey cells | – | – | 5 days | – | CC50 | 31.6 µM |
| Cc1cc(C(=O)NC(C)(C)COc2cccc3c2C(N)=NS(=O)(=O)N3)cc(C)n1 | Escherichia coli | Ames test, confirmatory | WP2 uvrA | 333 µg/plate, together with: rat liver S9 | reference: solvent control | revertant ratio | 1.1 |
| COC(=O)[C@H]1[C@@H](OC(=O)c2ccccc2)C[C@@H]2CC[C@H]1N2C | – | – | rat whole blood | 500 nM, 4 freeze-thaw cycles | – | stability bias | -3.71% |
| O=[N+]([O-])c1ccc(N2CCN(CCC(O)c3ccc(F)cc3)CC2)c(C(F)(F)F)c1 (stereo not drawn) | Salmonella typhimurium | SOS/umu test | TA1535/pSK1002 | 0.016 mg/mL, 4 h, without S9, lower range | – | survival | 102% |
| CC(=O)Oc1ccc2c3c1O[C@H]1[C@@H](OC(C)=O)C=C[C@H]4[C@@H](C2)N(C)CC[C@@]341 | – | – | rat, whole blood | 1000 nM, 4 months, -80 °C, long-term storage | – | stability bias | -7.82% |
| CN1CCN(CCCN2c3ccccc3Sc3ccc(C(F)(F)F)cc32)CC1 | African green monkey cells | – | – | 5 days | – | CC50 | 7.94 µM |
| CN1CC[C@]23c4c5ccc(O)c4O[C@H]2[C@@H](O[C@@H]2O[C@H](C(=O)O)[C@@H](O)[C@H](O)[C@H]2O)C=C[C@H]3[C@H]1C5 | – | – | rat, whole blood | 1000 nM, 4 h, room temperature, bench-top storage | – | stability bias | 2.18% |
| Cc1ncc2n1-c1ccc(Cl)cc1C(c1ccccc1F)=NC2 | – | – | wild-type mice, plasma | intravenous, 0.3 mg/kg, together with: 14-day BC 500 mg/kg | – | clearance | 149 ± 27 mL/min |
| CN1[C@H]2CC[C@@H]1[C@@H](C(=O)O)[C@@H](OC(=O)c1ccccc1)C2 | – | – | rat whole blood | 500 nM, 4 h, room temperature | – | stability bias | 7.45% |
| O=C(c1ccc(F)c(F)c1Nc1ccc(I)cc1F)N1CC(O)([C@@H]2CCCCN2)C1 | – | – | patients aged 6 to sample A years | oral, dose not given | – | AE leading dose modification | 36% |
